# Results gathered from unrelated publications.
# Numbers after ± are the reported error.
# Organism: Trypanosoma brucei brucei
SMILES,test,system,conditions,how to read,measurement,value
C[C@H](Nc1c(-c2c(F)cc(OCCCN(C)C)cc2F)c(Cl)nc2ncnn12)C(F)(F)F,,Lister 427,"4 µM, 12 h",,viability,23.9%
Nc1ncnc2c1c(Cl)cn2[C@@H]1O[C@H](CO)[C@@H](O)[C@H]1O,"parasite growth, resazurin",Squib 427,72 h,,EC50,1330 ± 340 nM
C[Se][C@@H]1O[C@H](COC(C)=O)[C@@H](OC(C)=O)[C@H](OC(C)=O)[C@H]1OC(C)=O,,bloodstream form,"5 µM, 24 h, 1 % DMSO",,viability,91.9 ± 14.8%
Nc1ncnc2c1c(Br)cn2[C@@H]1O[C@H](CO)[C@@H](O)[C@H]1O,"parasite growth, resazurin",Squib 427,72 h,,EC50,1200 ± 300 nM
CC1(C)O[C@H](COP2(=O)OCc3ccccc3O2)[C@H](C(=O)NO)O1 (some centres unmarked),"parasite growth, Alamar Blue",Lister 427 bloodstream form,,,IC50,> 100000 nM
CC(=O)N[C@@H]1[C@@H](OC(C)=O)[C@H](OC(C)=O)[C@@H](COC(C)=O)O[C@H]1[Se]Cc1ccccc1,,bloodstream form,"5 µM, 24 h, 1 % DMSO",,viability,88.1 ± 17.5%
COc1ccc(CONC(=O)C2OC(C)(C)OC2COP2(=O)OCc3ccccc3O2)c(OC)c1 (centres unmarked),"parasite growth, Alamar Blue",Lister 427 bloodstream form,,,IC50,> 100000 nM
Cc1cc(C(=O)Nc2nc3cccc(C)c3n2[C@H]2CCCCN(C(=O)/C=C/CN(C)C)C2)ccn1,Alamar Blue,2T1 CLK1 overexpression,,reference: uninduced control,EC50 shift,6.5 fold

# Some of these lines once more:
SMILES,test,system,conditions,how to read,measurement,value
Nc1ncnc2c1c(Br)cn2[C@@H]1O[C@H](CO)[C@@H](O)[C@H]1O,"parasite growth, resazurin",Squib 427,72 h,,EC50,1200 ± 300 nM
